{"data": "Assay results pooled from the literature", "target": "5-hydroxytryptamine receptor 1A (HTR1A, Homo sapiens, UniProt P08908)", "note": "Compare with care: the assays were run in different laboratories. ± marks the error that the study gave.", "sequence of UniProt P08908 (whole entry, looked up)": "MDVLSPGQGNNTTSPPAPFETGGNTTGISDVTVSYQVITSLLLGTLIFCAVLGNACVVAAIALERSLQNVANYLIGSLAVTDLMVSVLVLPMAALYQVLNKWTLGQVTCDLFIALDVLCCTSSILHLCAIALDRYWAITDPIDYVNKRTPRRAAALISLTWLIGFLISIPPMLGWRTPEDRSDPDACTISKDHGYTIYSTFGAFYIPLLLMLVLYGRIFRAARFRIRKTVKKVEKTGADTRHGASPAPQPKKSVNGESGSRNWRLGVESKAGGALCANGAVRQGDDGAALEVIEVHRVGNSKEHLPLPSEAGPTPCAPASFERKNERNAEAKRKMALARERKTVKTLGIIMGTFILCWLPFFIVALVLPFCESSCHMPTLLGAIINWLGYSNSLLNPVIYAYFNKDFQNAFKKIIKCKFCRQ"}
{"Compound": "O=C(CN1CCO[C@@H](COc2cccnc2)C1)N1CCc2ccccc21", "assay": "radioligand binding", "conditions": "concentration not given, with: [3H]8-OH-DPAT", "inhibition [%]": 30.4}
{"Compound": "CN(C(=O)n1cnc(-c2ccc[n+]([O-])c2)c1)C1CCCCC1", "assay": "binding", "conditions": "10 µM", "inhibition [%]": 12.6}
{"Compound": "c1cc(N2CCN(CCCOc3ccc(CN4CCOCC4)cc3)CC2)c2ccsc2c1", "conditions": "10 µM", "inhibition [%]": "99.6 ± 1.8"}
{"Compound": "COc1cc2c(cc1OC)C(=O)N(CCCCN1CCN(c3ccccc3OC)CC1)C2", "assay": "radioligand binding", "conditions": "concentration not given, with: [3H]8-OH-DPAT", "inhibition [%]": 93.3}
{"Compound": "COc1cc(Cl)c(C(=O)N[C@@H](CN[C@H]2CC[C@@H](N)CC2)Cc2ccc(C#N)cc2)cc1-c1ccc(CN[C@H](C)c2ccc(C)cc2)o1", "assay": "agonist response, antagonist", "system": "human cells", "conditions": "10 µM, 5-HT1A antagonist", "inhibition [%]": 15}
{"Compound": "O=C(NO)c1ccc(CN2CCCCc3ccccc32)c(F)c1", "assay": "radioligand binding, PDSP radioligand binding", "conditions": "10 µM", "inhibition [%]": -26.4}
{"Compound": "CCS(=O)(=O)c1nc(S(=O)(=O)c2ccccc2Cl)c(N2CCN(C)C(=O)[C@H]2C)s1", "conditions": "10 µM", "inhibition [%]": 18.4}
{"Compound": "O=C(CN1CCO[C@H](COc2ccccc2)C1)N1CCc2ccccc21", "assay": "radioligand binding", "conditions": "concentration not given, with: [3H]8-OH-DPAT", "inhibition [%]": 47.6}
{"Compound": "OCCCN1CC[C@@H]2C[C@H]1c1cc(-c3ccc(C(F)(F)F)cc3)ccc12", "assay": "radioligand binding, PDSP competition binding", "conditions": "10 µM", "inhibition [%]": "< 50"}
